Measured values gathered from unrelated publications.
Each numbered part is a random draw from the data of one study; scales do not carry over between parts. Changes are numbered by the printed parent chain.

Sample 1
Target: RING finger protein unkempt homolog, zinc fingers 1-6, SBP tag (UNK, Homo sapiens, UniProt Q9C0B0, residues 30-357)
Sequence of UniProt Q9C0B0 (30-357, looked up): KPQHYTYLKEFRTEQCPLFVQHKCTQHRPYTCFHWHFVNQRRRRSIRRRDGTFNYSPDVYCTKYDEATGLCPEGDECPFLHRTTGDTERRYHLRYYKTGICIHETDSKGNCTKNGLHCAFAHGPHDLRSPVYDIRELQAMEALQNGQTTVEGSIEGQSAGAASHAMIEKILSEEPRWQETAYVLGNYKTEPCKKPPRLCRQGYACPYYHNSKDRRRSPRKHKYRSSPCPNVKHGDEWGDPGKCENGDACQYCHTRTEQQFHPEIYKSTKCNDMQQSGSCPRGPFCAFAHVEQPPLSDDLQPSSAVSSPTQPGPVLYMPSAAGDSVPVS
Technique: RNA Bind-n-Seq
Molecule type: RNA
Sample: in vitro
Tested at: 100 nM
Notes: RNA with constant flanks, vertebrate orthologous sites, ends assumed
Relative to: input RNA pool
Direction: higher = stronger binding
Shared flanks, not repeated: GGGAGUUCUACAGUCCGACGAUC … CAACAGAGGAUUGAGCAUCA
Strand | bound/input enrichment [ratio]
AAACUAUGCUGGUGCACGGUCCUGUGACCAGUGCCCUCCGCCCCUCUUUACACCACUGUCCUACCUACAGGAAUUUAAUAUUUUUAAAGUUUUACAAUACUGUAUAUUCAAAGAUUUGUU | 0.342
GUUGAACAUAAAUGUUUCCACUGGGUUUUGCUUAUAAGAAGAAAUGGACCCAUGCACUUAUAUAGCUUUUUAAUAGCGUUAACCAAUGCAUUUUAGACAUAUUUUGAUGUAUAUAUCUAU | 1.28
GAAGACGGCGACUGUACAUUAUCUCACUUAGAGAAUAUGAAAAUCAUUUUGUUUUGAAGCUAGGUAUUAAACUGGAGUAGCUAUUACGUUCUUGAAAACUGGGGCAGGUGUGCCCUUGAC | 1.46
AUCACUCAGUGACAGUAUGCCAUCUGUAGCAGAUUCUCACUCUAGUCAUUUUUCUGAAUUUAGUUGUUCUGACCUAGAAAGCAUGAAAACUUCUUGUAGCCAUGGCUCCAAUGAUUAUCA | 2.19
GUCCGUUCGCUCAGUCCCCAGCCAGGGUGGCAGGACCGAGGUUUCACCGAGGAACUGCAUUUCAAAAAUAUUUUUUUUUAACUGUCGAACAGGAAGCGACAUGGCUGAAACAGCCUCUGA | 0.495
CAUGUCCUUGUUGCUGUGAUAUUUAAAAUAUCCACAGUACUCACUUUUUCCAAAUGAUUCUAGUAACUGCCUAGAAAUAUUUUUCUCUUACCUGUUAUUUAUCAAUUUUUCCCAGUAUUU | 1.05
CUGAAGCUUUGUGUUUGGCUGCACCUGCAUAAGCUGCUACAAAUAGAAUAAAGAAUUUCAUAGCCUGUAUCUAUCAUUUGGAUGCAUGGAAAACGGGCUUUGCACACAGUGGGUUUGGAG | 1.14
ACCCCGAUUUUAGAUGUGAUACCUAGGCUUCAUUCCAGUUUGUUUUUGUCUUUUCUUGUUUAGAUACCAAUCUUUUAAAUUCUUGCAUUUUAGUAAGAAAGCUACCUUUUUAUGGAUGUU | 1.33

Sample 2
Target: Sal-like protein 4, full length isoform A (SALL4, Homo sapiens, UniProt Q9UJQ4, residues 1-1053)
Sequence of UniProt Q9UJQ4 (whole entry, looked up): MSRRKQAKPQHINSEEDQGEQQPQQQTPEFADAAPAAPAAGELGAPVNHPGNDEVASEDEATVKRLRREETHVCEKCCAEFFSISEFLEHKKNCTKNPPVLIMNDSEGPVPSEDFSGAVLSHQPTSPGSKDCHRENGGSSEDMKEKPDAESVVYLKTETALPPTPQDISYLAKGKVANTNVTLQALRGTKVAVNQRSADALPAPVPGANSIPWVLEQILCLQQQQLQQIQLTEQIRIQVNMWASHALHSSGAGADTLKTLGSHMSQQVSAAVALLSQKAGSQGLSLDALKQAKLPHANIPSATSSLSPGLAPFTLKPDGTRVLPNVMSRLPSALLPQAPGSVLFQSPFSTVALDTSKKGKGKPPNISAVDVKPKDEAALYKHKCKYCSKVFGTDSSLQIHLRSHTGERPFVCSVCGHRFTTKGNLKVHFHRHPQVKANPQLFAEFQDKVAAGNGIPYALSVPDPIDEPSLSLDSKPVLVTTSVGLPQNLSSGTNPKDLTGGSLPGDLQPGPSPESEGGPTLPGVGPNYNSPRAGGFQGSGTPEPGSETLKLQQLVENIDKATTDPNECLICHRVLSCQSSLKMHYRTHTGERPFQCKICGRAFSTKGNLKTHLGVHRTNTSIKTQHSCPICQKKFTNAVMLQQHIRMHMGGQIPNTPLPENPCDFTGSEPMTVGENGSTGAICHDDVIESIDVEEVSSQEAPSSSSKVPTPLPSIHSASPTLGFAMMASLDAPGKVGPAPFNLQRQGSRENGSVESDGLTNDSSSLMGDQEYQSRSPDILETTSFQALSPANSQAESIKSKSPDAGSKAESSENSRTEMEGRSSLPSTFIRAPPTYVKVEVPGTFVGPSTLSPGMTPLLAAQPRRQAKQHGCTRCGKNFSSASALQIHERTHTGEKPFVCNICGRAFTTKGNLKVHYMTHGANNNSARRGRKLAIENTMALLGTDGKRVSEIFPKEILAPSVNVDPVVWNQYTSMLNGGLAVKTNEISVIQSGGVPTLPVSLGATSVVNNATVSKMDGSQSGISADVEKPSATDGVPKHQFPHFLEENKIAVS
Technique: universal PBM
Molecule type: double-stranded DNA, one strand shown
Sample: in vitro
Tested at: 600 nM
Notes: 8-mer, flanks averaged, mean of replicates
Direction: higher = stronger binding
Strand | E-score
GTTCTCCA | -0.0287
CAAGGGTA | 0.0101
GACTTATC | -0.00121
AGGTAGGG | -0.0571
GAGGTTGC | -0.302
GATTATGC | 0.0882
AGCCGCTC | -0.116
TCGATTAA | 0.3
AATTTGCC | 0.13
CTGGCGGA | -0.255
CACGAGGA | -0.129
CCCGGCCG | -0.361
CAAGAAAA | 0.224
ATCTGACA | 0.0431
TAATGGAA | 0.209
AAGTGGAG | 0.118
GCGGTTCA | -0.243
CAATTTGC | 0.0262
CCCTGAAG | -0.285
TCGAAGCA | 0.0301
TAGACAAA | 0.0994
AGTCGTAA | 0.179
GGTTATCA | 0.0844
CCTAGGGA | -0.0898

Sample 3
Target: CCNB1, cyclin fold, Cln2 fusion (human)
Technique: yeast growth competition, sequencing
Sample: yeast
Notes: strong parent motif
Relative to: not given
Direction: higher = stronger binding
Parent: MICAL3 docking peptide (human); LQLRRQLSFSEDS; partner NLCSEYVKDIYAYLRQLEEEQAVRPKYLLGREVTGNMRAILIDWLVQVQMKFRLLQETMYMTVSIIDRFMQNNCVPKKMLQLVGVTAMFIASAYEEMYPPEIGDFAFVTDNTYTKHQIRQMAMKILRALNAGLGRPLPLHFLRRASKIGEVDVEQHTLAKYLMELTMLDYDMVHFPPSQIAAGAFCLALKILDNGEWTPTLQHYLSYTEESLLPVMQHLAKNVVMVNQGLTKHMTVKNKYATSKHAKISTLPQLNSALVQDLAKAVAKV
Change | normalised enrichment score
LQNRRQLSFSEDS [L3N] | 0.168
LQLRRQLSFQEDS [S10Q] | 3.02
LQTRRQLSFSEDS [L3T] | 3.15
LQLRRQKSFSEDS [L7K] | 0.227
LQLRRQLSFSEMS [D12M] | 3.79
LQLRRQESFSEDS [L7E] | 0.457
LQLRRQLSFSERS [D12R] | 3.2
LQLRRQLSGSEDS [F9G] | -0.0832
LQLRHQLSFSEDS [R5H] | 0.362
LQLRRALSFSEDS [Q6A] | 4.7
LQLRRQRSFSEDS [L7R] | -0.326
LQLRRQLSFWEDS [S10W] | 0.676
LQLRRQLSFSEGS [D12G] | 4.52
LQLRRQPSFSEDS [L7P] | 0.282
LQLMRQLSFSEDS [R4M] | 3.33
LQLRRQLSFSSDS [E11S] | 3.99
LYLRRQLSFSEDS [Q2Y] | 3.84
LQLERQLSFSEDS [R4E] | 3.95
LQLRRQLSFTEDS [S10T] | 4.11
LQLRRQLNFSEDS [S8N] | 2.27
LQLRRQLSFSEWS [D12W] | 2.84
LQLIRQLSFSEDS [R4I] | 4.61
LQLRNQLSFSEDS [R5N] | 0.696
LQLRRQASFSEDS [L7A] | -0.0698
LQLRRQLSFSEQS [D12Q] | 3.98

Sample 4
Target: ABI1, truncated, D143A, DHFR fusion (Arabidopsis thaliana)
Technique: DHFR PCA, deep sequencing
Sample: yeast
Notes: methotrexate growth selection, single substitutions
Added: (+)-ABA 710 µM
Relative to: wild-type fitted maximum
Direction: higher = stronger binding
Parent: PYL1, truncated, DHFR fusion (Arabidopsis thaliana); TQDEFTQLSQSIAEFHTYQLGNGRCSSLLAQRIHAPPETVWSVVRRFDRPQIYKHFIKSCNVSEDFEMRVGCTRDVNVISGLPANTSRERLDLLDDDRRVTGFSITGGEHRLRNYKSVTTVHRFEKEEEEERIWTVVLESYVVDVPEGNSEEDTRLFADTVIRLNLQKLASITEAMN; partner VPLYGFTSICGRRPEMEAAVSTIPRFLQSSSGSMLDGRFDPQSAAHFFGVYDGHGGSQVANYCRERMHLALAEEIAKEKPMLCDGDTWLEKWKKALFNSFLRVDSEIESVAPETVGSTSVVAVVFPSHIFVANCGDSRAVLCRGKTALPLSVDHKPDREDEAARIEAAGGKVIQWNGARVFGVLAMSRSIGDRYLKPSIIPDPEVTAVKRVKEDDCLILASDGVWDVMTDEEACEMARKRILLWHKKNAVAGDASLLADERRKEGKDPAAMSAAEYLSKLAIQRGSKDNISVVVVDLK
Change | relative binding score
F66G | 101%
V76R | 13.6%
P50G | 14.7%
T1G | 102%
Q51Y | 93.8%
T106L | 107%
E125G | 97.9%
N22C | 98.4%
E109R | 98.7%
L94D | 17.6%
A35T | 86.3%
R32V | 98.3%
A158R | -3.53%
T120P | 0.357%
N114G | 102%

Sample 5
Target: RNA binding protein fox-1 homolog 2, RRM domain, GST-SBP tag (RBFOX2, Homo sapiens, UniProt O43251-10, residues 100-194)
Technique: RNA Bind-n-Seq
Molecule type: RNA
Sample: in vitro
Tested at: 365 nM
Notes: natural RNA segment, single round, ends assumed
Relative to: no-protein control
Direction: higher = stronger binding
Shared flanks, not repeated: GGGAGUUCUACAGUCCGACGAUC … UGGAAUUCUCGGGUGCCAA
Construct (chain): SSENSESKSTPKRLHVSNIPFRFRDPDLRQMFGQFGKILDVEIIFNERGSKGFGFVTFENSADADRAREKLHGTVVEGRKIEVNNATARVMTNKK
Strand | RBNS enrichment (R)
ACCAACCCACCCUGUAGAUUGUCAGCUUUUUGUUUGAGAGAUGCCUGGUCUCACAGUUACAUGUAUCAGAGUGUGUGUAAGUUGUCUGUGUUAGAAAGGUUGGGGUGGGG | 1.16
CGCCCUGCUGCCACCCAGUGACUGGCAGGGCCGAGCCAGCAUUCCACCCCACCUUUUUCCUUCUCCCCAAUUACUCCCCUGAAUCAAUGUACAAAUCAGCACCCACAUCC | 1.92
GAUGCAAUUAUGUAACCAUUAAGCUGAUUCCGAGGCUGGCAGGCUAGGGCCGCCCCUCUGGAAAGGUUCCAUGUGUCUCCAUCCCCAUCCCUUACUCUUCGGGUCAGCUG | 0.302
CGCCUCUCUGUAGCUAAGCACAGUUAGGCUGGGUGAUUUGGAUCCCGACUCGCAUCUGGUAUUGUAGACCUUUUACCUCUCAUCCGUUGUGCUUACUAACAAAAUGUGAA | 1.97
ACGGUGUCCGUGUUGUUGCUUUCCCACCCUGCAGCGCACUGGACUGAAGAGCUUCCCUCUUCCUACUGCAGCAUGAACUGCAAGCUCCCCUCAGCCCAUCUUGCUCCCUC | 1.95
UUUUGGUGAUUUCAAUUGACUUUGUUUCUUUUAGGUACUGUUUUUAUUGUUUUACUUAGAAUAUUAGGAUUUUUUUUCACUAAUUUUUCUGCCAGUGAAGGAAAAUGGUC | 0.626
AGCAAGAUCAUGCCUUCUCUGUCUGGAAGAGGCAACAGUUUGGAGAUCCUGUCAUCAUGGGACGUCAGUGUUUUUUGUUAAAGGGGACAUACAUGGGGGCAUGUCAUGGG | 0.914
GGCAGAAGACGGUGGCGGCCCUGGGAGUGCUCGGUGUUUUCUGCAGUGCAAGCUACGGACCACAGUUAGGCUGCCUCACCUCUCAGGCGGCCAGCAGCAGCUCUGCUCAG | 0.444
